Experimental data of several laboratories.
Parts stem from different laboratories: compare values within a part only. Positions count from the first letter of the parent shown.

Block 1
Target: Hepatocyte nuclear factor 3-alpha (Foxa1, Mus musculus, UniProt P35582, residues 1-468, full length assumed)
Chain of UniProt P35582 (whole entry, looked up): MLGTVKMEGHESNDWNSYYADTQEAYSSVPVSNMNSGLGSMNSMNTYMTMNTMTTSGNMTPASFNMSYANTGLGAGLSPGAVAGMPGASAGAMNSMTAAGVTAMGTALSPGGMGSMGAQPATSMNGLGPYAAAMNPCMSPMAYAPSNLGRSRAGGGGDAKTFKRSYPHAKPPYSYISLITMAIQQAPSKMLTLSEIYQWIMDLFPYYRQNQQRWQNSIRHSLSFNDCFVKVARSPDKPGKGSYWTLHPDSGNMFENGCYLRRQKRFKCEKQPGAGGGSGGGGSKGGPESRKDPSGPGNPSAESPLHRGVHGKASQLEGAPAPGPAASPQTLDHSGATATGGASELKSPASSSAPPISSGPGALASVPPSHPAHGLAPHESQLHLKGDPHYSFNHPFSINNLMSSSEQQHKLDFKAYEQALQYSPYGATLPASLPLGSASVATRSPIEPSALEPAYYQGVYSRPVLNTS
Method: EMSA with sequencing
Form: double-stranded DNA, one strand shown
Sample: in vitro
Concentration: 10 and 20 nM
Setting: whole designed probe, mean of two concentrations, ends assumed
Baseline: negative control set to 0
Reading: higher = stronger binding
Quantity: normalised bound fraction
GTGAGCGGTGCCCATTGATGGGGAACTCTTTCCCCTTCTATGACTTGCAAATTTATATTTCTCTTAACAACCATAAAAACAACTACAGTTGCTGAAGAAATAATGACTCAGAAAGCAAAAGATTACTTTTAAATATGAGCAACTTTACATCTAATGCCAATGCCTGATAAAGAGAAATTTATAGTAATCTAAAAATATGGCCAAAATCACTTATTTAGCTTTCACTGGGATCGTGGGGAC: 0.00159 ratio
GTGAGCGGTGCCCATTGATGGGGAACCAGTACTTAATAAGTACAAAAAAGTCTATAGCGACACTATTTATAATTTTAAAAATGATTGAAGTCAATTAACATTTAAGTGTTAAAAAGAAAGTAAACAACCCAAATATACACAAACAGTAGACTGCTCTGGCTTGCATACAGAGAGGTCCATTGCCCTTTTGGGTGGGCCTAAGAAGCACTTCTGGGGAGATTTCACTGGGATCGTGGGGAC: 0.337 ratio
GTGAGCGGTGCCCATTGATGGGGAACTGAGAATTGAACAGGGTGTAAAGAACCTGGAAAGCACCTGGAACAGTGCCAGCCCATAGTAAGTACGCAGCGAGAATGAGCTATTTGTATTGTGTAAACATGGTGGACAGTGTCTGTTATGTATCCAAAATGATTGTTGTTGGAGACTAAGAGAAAATGGATGCAGCTACAGTACTGAGGAGGCTGCAGTGTCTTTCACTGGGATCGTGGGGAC: 0.424 ratio
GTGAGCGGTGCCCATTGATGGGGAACATCTTCCCCCTCTTCCTTTTTTTTTCAGCTCACCTTCCCGGGTTATTTGCAGATAGGAAAATAAATAAAGCCGGCATTCGTTAACCCTCTTCTGGCGCAAACTGCTGTTTGCTCTGGATGAATCATGGTCCTTTGGCGACGCCAGGCTCCGGGAGAGCAAAGCACCGTGTCAGGGCCATGATCCGGGGTGGCCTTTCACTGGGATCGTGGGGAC: 0.316 ratio
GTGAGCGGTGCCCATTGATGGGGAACTCAGGTTGCAGTGAGCTCTGATCGTGCCACTGCACTCCAGCCTGTGTGACAGAGCAAGGGCCTGTCTCTAAAAACAAAACAAAACAAAGCAAAACAATCTTGAGAAGTGCTGATTCATACCTTGCAAAGAGGTTTCATTCGGCAGCAAGTTGAAATTATCTACTGGTTTGTACATGAGCTAGCACTTCCTCTTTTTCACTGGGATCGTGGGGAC: 0.0239 ratio
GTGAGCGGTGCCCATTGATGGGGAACCTAGCTCCAGTCTTAGCATGGCAATTTCTTCCCGCAACATACTATTTTCATGCAAGAAGTCTCTTTCTTTCTTACAACTAAGAGAAAGCTAAGTAATCTAAGAGAACTTTTAGTTAGCACTCAATAGATTGACATAACATGATTTCTTTTGAAATTCAAAAATAACATGTATTTGTATAATGAAAGAATCCCCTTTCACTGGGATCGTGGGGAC: 0.114 ratio

Block 2
Target: RNA binding protein fox-1 homolog 2, RRM domain, GST-SBP tag (RBFOX2, Homo sapiens, UniProt O43251-10, residues 100-194)
Method: RNA Bind-n-Seq
Form: RNA
Sample: in vitro
Concentration: 365 nM
Setting: natural RNA segment, single round, ends assumed
Baseline: no-protein control
Reading: higher = stronger binding
Quantity: RBNS enrichment (R)
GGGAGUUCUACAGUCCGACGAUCUCAACAUCUUAUUCUUUGGCCUUUCUUAAUUGAUGCUUUAUGGAGGCAGUGUUAACAUUGUACAGUGUAUGCAUAGAGGAGUCUCCUCUAUUUGAAGAACAAUGCAAAAUUGGAAUUCUCGGGUGCCAA: 1.24
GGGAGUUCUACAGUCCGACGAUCUAUGCUGGCAAUAUAGGAUGGUAUGUAAUGGACAGAACUGAUGCAGAUGGUUGAAUGCGCUUGUACUAUAUGCUAAAAUAUGGAAAAGGAAAAAAAAAUCUCACAAGUUCUGGAAUUCUCGGGUGCCAA: 14.1
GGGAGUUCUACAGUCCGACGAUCACCUUCUUAGCCUCCUUCCUUCCUUCCACACGGCCCAGAGGCCAGCUCGGCCCCACCCAGAGGGCCUGGCCAGCUGCUCCCAAGCCACCCAGGGAGGCAGCAGACAGGUGUGGAAUUCUCGGGUGCCAA: 0.438
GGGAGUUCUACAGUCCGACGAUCAAAUGUCUUGAUGGAAGGUAUUAAACUAUUUGCCUGUUGUACAAAGAAAUGUUAAGACUCGUGAAAAGAAUUACUAUAAGGUACUGUGAAAUAACUGCGAUUUUGUGAGCUGGAAUUCUCGGGUGCCAA: 0.377
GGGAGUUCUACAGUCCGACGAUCUCUAUUGUAAAAUUUCAUUUUCACUAAGUAACACCCAGUAGAUAAUUCCUAUGGAGCAGUGGUGUUCCAAAUUCUCCAUUACCUCUAUGCCUAAUAUUCAUCAGCCUUCAUGGAAUUCUCGGGUGCCAA: 0.433
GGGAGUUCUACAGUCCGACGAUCAGAUGUUCUAGGAUAGUUGAUGCAUGUUACUAAAUUACGUAUGCAAGUCUGUGAGUGCGUCUGAGGGGACAUCGCCAAGGACUGACUGAGACACGAUGCCGAGACCUCAAUGGAAUUCUCGGGUGCCAA: 11.2
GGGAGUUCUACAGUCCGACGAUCCAAAGAGAGCCCUCUGGGCCUCUCCUCCCAUACACACUACACUGCCCCUUCUCCCCCCAUCAAAACGCUCAGAGACGUUGUGAUGAUGCGACUGAGGAUUAUGCAACGUGUGGAAUUCUCGGGUGCCAA: 0.431
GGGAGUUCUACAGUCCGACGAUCCAGUCACUUCCCUCCCCAGGCCCCAAAGCACCCCAAGGCUGGUAUUCCUUGAGUCAUAGGUAUUAAUAAUAAAAGCCUCAAUGCAGCUUCUCCAUGUAGUUCCUCUCCUAUGGAAUUCUCGGGUGCCAA: 0.517
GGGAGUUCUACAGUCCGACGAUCCACACCCUUCCCCUCCUGACAUCUUUAGUUUGGAGCACACAGAGGAAAUAGAACCUAAACACAUGCCCAGAAGUCCUGGUUCAAAAGCUUUACUAUGGAGCCUGCAUAUGUGGAAUUCUCGGGUGCCAA: 0.428

Block 3
Target: CCND2, cyclin fold, Cln2 fusion (human)
Method: yeast growth competition, sequencing
Sample: yeast
Setting: weak parent motif
Baseline: not given
Reading: higher = stronger binding
Quantity: normalised enrichment score
Starting sequence: CDC6 docking peptide (human); TLKGRRLVFDNQL; partner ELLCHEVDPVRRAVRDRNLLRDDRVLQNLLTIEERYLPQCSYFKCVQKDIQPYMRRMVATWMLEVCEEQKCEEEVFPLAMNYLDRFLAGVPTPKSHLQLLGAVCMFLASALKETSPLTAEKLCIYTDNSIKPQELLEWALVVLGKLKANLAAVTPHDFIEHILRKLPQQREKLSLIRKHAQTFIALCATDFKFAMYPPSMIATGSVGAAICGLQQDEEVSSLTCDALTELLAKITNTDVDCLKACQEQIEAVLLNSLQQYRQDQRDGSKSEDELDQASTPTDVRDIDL
TLKGRRLVFDHQL [N11H]: 0.201
TLKGRRYVFDNQL [L7Y]: 0.629
TLKGRRLGFDNQL [V8G]: 0.0351
TLKGRREVFDNQL [L7E]: -0.126
TLKGFRLVFDNQL [R5F]: 0.353
ILKGRRLVFDNQL [T1I]: -0.0336
TLKGRRLVFDNQG [L13G]: 0.361
TLKARRLVFDNQL [G4A]: 0.35
TLKGRRLEFDNQL [V8E]: 0.496
TLKGRGLVFDNQL [R6G]: -0.266
TLKGRRLVFDNQS [L13S]: 0.466
TLKGRILVFDNQL [R6I]: 0.148
TLKGRRLVFCNQL [D10C]: 0.543
TLKGHRLVFDNQL [R5H]: 0.0885
TLKNRRLVFDNQL [G4N]: 0.389
HLKGRRLVFDNQL [T1H]: 0.657
TLKGRRLLFDNQL [V8L]: 0.431
TLLGRRLVFDNQL [K3L]: 0.478
TLKGRRLVFDNML [Q12M]: 0.213
TLRGRRLVFDNQL [K3R]: 0.303
TLKGWRLVFDNQL [R5W]: -0.0142
TLKGRRLVFDNQM [L13M]: 0.261
TLKGRRNVFDNQL [L7N]: 0.0363

Block 4
Target: RING finger protein unkempt homolog, zinc fingers 1-6, GST-SBP tag (UNK, Homo sapiens, UniProt Q9C0B0, residues 30-357)
Chain of UniProt Q9C0B0 (30-357, looked up): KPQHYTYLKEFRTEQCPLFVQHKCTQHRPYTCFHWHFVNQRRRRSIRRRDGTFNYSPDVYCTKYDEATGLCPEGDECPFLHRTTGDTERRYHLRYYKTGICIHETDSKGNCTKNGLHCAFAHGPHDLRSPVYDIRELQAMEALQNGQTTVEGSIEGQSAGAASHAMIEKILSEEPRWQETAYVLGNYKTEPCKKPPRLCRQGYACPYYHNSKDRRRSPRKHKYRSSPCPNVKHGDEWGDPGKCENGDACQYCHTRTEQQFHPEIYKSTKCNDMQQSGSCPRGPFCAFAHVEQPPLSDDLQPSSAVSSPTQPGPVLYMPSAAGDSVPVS
Method: RNA Bind-n-Seq
Form: RNA
Sample: in vitro
Concentration: not given
Setting: RNA with constant flanks, human and mouse sites, ends assumed
Baseline: input RNA pool
Reading: higher = stronger binding
Quantity: bound/input enrichment
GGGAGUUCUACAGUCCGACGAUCUUUAAAAGAUGUUUGAAUUGUGUCUUAAUCCUUCAGUGUUUAACUUUCUUCAUUUGCAACAGUGUUGGCACCGUGGUGAUGGGAGGCCUCUGCCUGUGAGGACAGCUAAGGCUGGGUUAUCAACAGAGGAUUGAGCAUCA: 0.174 ratio
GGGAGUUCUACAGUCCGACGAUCUAAUUUUGCUGGAAUUCCUAACUUUUCAAUGACAUUUUUUUUAACUACUAUAUUGAUUGUCCUUUAAAAAAGAAAAGUGCAUAUUUAUCCAAAAUGUGUAUUUCUUAUACGCUUUUCUUUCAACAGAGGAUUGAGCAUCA: 1.03 ratio
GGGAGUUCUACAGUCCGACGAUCGAGAGGAAUAUAAUACCAAGAGAAGAAAAGCCUAUUGAGGAUGAAAUUGAAAGAAAAGAAAAUAUUAAGCCCUCUCUGGGAAGUAAAAAGAAUUUAUUAGAAUCUAUACCUACACAUUCUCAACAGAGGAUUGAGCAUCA: 1.74 ratio
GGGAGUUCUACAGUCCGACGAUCGAUGUCAGGACUAUCUUGCUCUCUAUCCAGAGCCUGCUAGGAGAACCCAACAUCGAUAGCCCUUUGAACACACACGCUGCGGAACUCUGGAAAAACCCCACAGCAUUUAAGAAAUACCUGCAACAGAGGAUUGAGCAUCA: 0.307 ratio
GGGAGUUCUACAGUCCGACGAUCUCCCAUGACCAAAGGACUCUGAUCACUGGCAUGGCUUCCGGCAGCAUUGUAGCUUUUAAUAUAGAUUUUAAUCGGUGGCAUUAUGAGCAUCAGAACAGGUACUGAAGAGAAGCAGCAGAACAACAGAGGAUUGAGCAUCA: 1.64 ratio
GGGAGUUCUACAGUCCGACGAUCACAGACUGUGUGGUUAUGCGGGAUCCUGCAAGCAAAAGAUCAAGAGGAUUUGGCUUUGUAACUUUCUCAUCCAUGGCCGAGGUUGACGCUGCCAUGGCUGCAAGGCCCCAUUCCAUUGAUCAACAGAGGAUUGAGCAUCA: 0.14 ratio
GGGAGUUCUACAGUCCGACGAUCCGGGCAGUAGAGGAACUACACAAACUUUUGAAAGAAGCUGGUGAAGCCAACAAAGCAAUACAAGAUCAUCUUCUAGAGGUGGAGCAAUCCAAAGAUCAAAUGGAAAAAGAAAUGCUUGAGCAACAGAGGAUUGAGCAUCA: 0.157 ratio
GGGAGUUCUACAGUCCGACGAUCGUGUGGCGCGCUGUCUUCCCGCUCGCGUCAGGGACCUGCCCGACUCAGCGGCUGCCAUGGCAUCAGAUGAAGGCAAGCUUUUCGUGGGAGGACUCAGCUUCGACACCAACGAGCAGGCGCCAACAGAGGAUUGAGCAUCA: 0.097 ratio
